Measurements from different studies.
Protocols differ between the studies behind these lines. “And” joins repeats or separate records; there may be more than shown. Numbers after ± are the reported error.

CN1CCN(S(=O)(=O)c2cc([N+](=O)[O-])ccc2N(CCOS(C)(=O)=O)CCOS(C)(=O)=O)CC1: “EFS ratio (T/C)” 3.2 (NSG mice, sample CG PDX; intraperitoneal, 25 mg/kg weekly x3; reference: treated over vehicle).
N.N.[Cl][Pt][Cl] gave a tumour volume of 214 mm3 and 490 mm3 and 129 mm3 and 299 mm3 and 277 mm3 and 110 mm3 and 308 mm3 and 91.2 mm3 (KSN/Slc nude mice, SAS xenograft; dose not given, day 10).
For C[C@H](NC(=O)c1c(C(F)F)nn(C)c1Oc1cccc(C(F)(F)F)c1)c1ccc(C(=O)O)cc1, the deaths was 0% (human, advanced tumours; 750 mg).
CC[C@@H](C)[C@@H](NC(=O)[C@@H](Cc1ccc(O)cc1)NC(=O)[C@H]1CCCN1C(=O)[C@@H](CCCNC(=N)N)NC(=O)[C@H](N)Cc1c[nH]cn1)C(=O)N[C@H](C)C(=O)N[C@H](Cc1c[nH]cn1)C(=O)N[C@H](CCCNC(=N)N)C(=O)N[C@H](CCCCNC(=O)c1cccc(S(=O)(=O)F)c1)C(=O)N[C@H](Cc1ccc(O)cc1)C(=O)N[C@H](CO)C(=O)N[C@H](Cc1ccccc1)C(N)=O — result for “CD3+ CD8+ T cell frequency”: 21.2% and 18.8% and 21.1% and 20.8% and 22.4% (ex vivo flow cytometry; B16 tumour-bearing mice, tumour; dose not given).
Under “1-year survival rate”, [131I-].[Na+] is recorded as 95% (human, papillary thyroid carcinoma; dose not given, high-dose radioiodine therapy).
COc1cc(C(=O)c2c[nH]c3cc(-c4cccc(OP(=O)([O-])[O-])c4)ccc23)cc(OC)c1OC.[Na+].[Na+] gave a bioluminescence signal of < 10% (bioluminescence imaging; mouse orthotopic RENCA-luc kidney tumour; 150 mg/kg single dose, 2.5 h; reference: baseline).
With CCCCC1(CCCC)CN(c2ccccc2)c2cc(SC)c(OCC(=O)N[C@@H](C(=O)NCC(=O)O)c3ccccc3)cc2S(=O)(=O)C1 the serum HDL-C was 57.2 mg/dL (measured: HDL cholesterol; human, serum; 2.5 mg once daily, day 2).
Cc1cn(-c2cc(NC(=O)c3ccc(C)c(Nc4nccc(-c5cccnc5)n4)c3)cc(C(F)(F)F)c2)cn1: “ADAS-Cog maze time difference” 3 (human patients; baseline, unit not given; reference: placebo).
The distance travelled of O=C(O)/C=C/C(=O)O.Oc1cccc2[nH]cc(CCNCc3ccccc3)c12 is reported as 2650 ± 254 cm (C57BL/6J mice; subcutaneous, 0.03 mg/kg, 30 min).
CC(C)(O)c1cnc2ncc(-c3ccc(F)c(-c4c(F)cccc4C#N)c3)n2n1 — result for “minimum effective dose”: ≥ 0.03 mg/kg (food-maintained responding; Sprague-Dawley rat; intraperitoneal, acute dependence model, added: diazepam pretreatment 30 min; reference: diazepam alone).
Under “complete response rate”, Nc1ncnc2c1ncn2[C@@H]1O[C@@H]2COP(=O)([S-])O[C@@H]3[C@H](O)[C@@H](COP([O-])(=S)O[C@H]2[C@H]1O)O[C@H]3n1cnc2c(N)ncnc21.[Na+].[Na+] (some centres unmarked) is recorded as 10% (BALB/c mouse CT26 tumour; iv, 1 mg/kg days 9,12,15).
For CC[C@H](C)[C@@H]1NC(=O)[C@@H]2CCCN2C(=O)[C@H](CC(C)C)NC(=O)[C@H](CC(C)C)NC(=O)CNC(=O)[C@@H](NC(=O)[C@@H](NC(=O)[C@H](CC(=O)O)NC(=O)CNC(=O)[C@@H](NC(=O)[C@H](C)NC(=O)CNC(=O)[C@H](CCCCN)NC(=O)[C@H](CC(C)C)NC(=O)[C@H](CC(C)C)NC(=O)[C@H](CCCCN)NC(=O)CNC(=O)[C@@H](NC(=O)[C@@H](N)CC(C)C)C(C)C)C(C)C)C(C)C)CSSC[C@@H](C(=O)O)NC1=O, “log2 fold change” read -1.47 (RNA-seq, measured: Tmem79; mouse, traumatic brain injury model, frontal cortex and hippocampus; dose not given; reference: TBI alone).
C[C@H]1N=C(c2ccccc2F)c2cc(Br)ccc2-n2cnc(C(=O)O)c21 has a relaxation time of ≤ 30 min (guinea pig tracheal rings; added: substance P contraction).
Cc1cccc(C)c1NC(=O)C1CCCCN1 (centres unmarked) — result for “sensory maximum possible effect”: 100% (hot plate; Sprague-Dawley rat, male, sciatic nerve; 22.5 mM).
C[C@H]1O[C@@H](O[C@H]2CC[C@@]3(C)[C@@H](CC[C@]4(C)[C@@H]3C=C[C@]35OC[C@@]6(CCC(C)(C)C[C@H]63)[C@@H](O)C[C@]54C)[C@]2(C)CO)[C@H](O)[C@@H](O[C@@H]2O[C@H](CO)[C@@H](O)[C@H](O)[C@H]2O)[C@H]1O has an ALT activity of 24.4 U/L and 24.9 U/L and 18.4 U/L and 25.1 U/L and 22.4 U/L and 27.7 U/L (Mus musculus, pair-fed, AAV8-TBG-SIRT1 shRNA hepatic SIRT1 knockdown, plasma; oral, high dose, 5 h).
CS(=O)(=O)c1ccc(-c2nnc(/C=C/c3nnc(-c4ccc(C#N)cc4)o3)n2-c2ccccc2Cl)nc1: “normalized enrichment score” -2.08 (RNA-seq GSEA, measured: FALLER_STEM_MOUSE; organoids, small intestinal, Apc Q1405X, mouse; dose not given, knockout organoids; reference: DMSO, direction not given).
c1ccc2c(c1)Nc1ccccc1S2 has a tumour volume of 128 mm³ (CT26 tumour-bearing mice; intraperitoneal, 100 mg/kg equivalents daily, day 0).
